Measurements of several laboratories.
Each numbered part is a random draw from the data of one study; scales do not carry over between parts. Substitutions count along the parent as printed.

Block 1
Target: RING finger protein unkempt homolog, zinc fingers 1-6, SBP tag (UNK, Homo sapiens, UniProt Q9C0B0, residues 30-357)
UniProt Q9C0B0, sequence (30-357, looked up): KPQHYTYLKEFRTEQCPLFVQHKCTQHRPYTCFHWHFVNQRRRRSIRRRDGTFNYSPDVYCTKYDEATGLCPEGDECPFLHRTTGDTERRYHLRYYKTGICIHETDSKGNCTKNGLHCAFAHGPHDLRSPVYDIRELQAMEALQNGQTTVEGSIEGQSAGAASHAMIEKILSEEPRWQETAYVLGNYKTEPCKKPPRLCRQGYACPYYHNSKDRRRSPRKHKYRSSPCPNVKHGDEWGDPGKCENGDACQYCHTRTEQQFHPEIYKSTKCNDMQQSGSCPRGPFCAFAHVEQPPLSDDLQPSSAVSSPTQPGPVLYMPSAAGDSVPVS
Technique: RNA Bind-n-Seq
Form: RNA
Sample: in vitro
Concentration: 100 nM
Setting: RNA with constant flanks, vertebrate orthologous sites, ends assumed
Reference: input RNA pool
Reading: higher = stronger binding
The bound/input enrichment of `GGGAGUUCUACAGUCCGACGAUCAUUGAACAAAAAUGUUUCCACUGGCUUUUGCCUGUAAGAAAAAAAAUGUACCCGAGCACAUAGAGCUUUUUAAUAGCACUAACCAAUGCCUUUUUAGAUGUAUUUUUGAUGUAUAUAUCUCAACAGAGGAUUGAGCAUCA` is reported as 0.607 ratio.
With `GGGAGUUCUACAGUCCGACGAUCGCCUCCAGCAGGCAAAUUCAGGGGGAGAGAGGCUUCAGGGAGUAUAAAUUUAUUUAAUAGUAGUGAUCAUGAAGUAUAAACUUGAUAUAAUUGAAUGAUUUGGGGGAGUGAUGACAAACUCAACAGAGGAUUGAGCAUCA` the bound/input enrichment was 1.67 ratio.
`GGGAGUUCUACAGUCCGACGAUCUCAAUCAUGGAGAAAAAUAUAUUAAAAUAAUUCACGGCACUGAUGUUAAUUCUAGUCUGUUGGUUUUAUAAAAGUUAGGGUUCUUAUUUAGGAACAACAGGAAGUGACUGUUAAAGAGAACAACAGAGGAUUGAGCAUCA` has a bound/input enrichment of 0.71 ratio.
For `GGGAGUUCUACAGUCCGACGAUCUUGGGGGGCAGCCGGUGGGGGAAUUCCCUGCCUUGGCCUUGCCUCCCCCCUUCCUGCUACCUGCCCCUAGUUUUUUUUUUUUAACCACCAUGUGAUUAAGGUCGGCGCUGCCUCCCCCGACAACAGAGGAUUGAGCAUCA`, the bound/input enrichment was 4.3 ratio.
`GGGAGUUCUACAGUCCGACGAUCAUUGUACUCCAAAGUCAUCCUACCUCUAAAACAGCACGGUGAUGCCAAACUAGUCUACAUUAGGGAAUCACCUGCUGUCACAUUGUCAUUGGUGUGUGUCUUGAUGCCUGAACUGGUUACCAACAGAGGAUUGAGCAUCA` gave a bound/input enrichment of 0.271 ratio.
For `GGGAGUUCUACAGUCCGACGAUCCAGGGAUGGCCCCAAUCCCACCUCUGUUUAUUCUGUAAACUUCAACCUGUAAAUAACGUUUAGCAUUCCUAUUGUAACAAAAUUAAUUUUUAUGAAAUAAAUUAUAUUUCCUAGUCUAAUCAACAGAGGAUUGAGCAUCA`, the bound/input enrichment was 1.04 ratio.
For `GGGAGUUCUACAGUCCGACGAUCACACAUAUACGUACAUACAUACACAGGCACACAAAAUCUCUCCGGGGAGGUAUGUUUCUUGCAUAUUAAAAAAGCCAGCCAUUUUUAAGUAGAAGAGGGUUUUAGAUAGAUUAUAUGUGUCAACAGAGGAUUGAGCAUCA`, the bound/input enrichment was 1.29 ratio.
With `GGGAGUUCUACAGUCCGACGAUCAAACCCCGAUUUUAGAUGUGAUAUCUAGGCUCUCAUUCCAGUUUGUUUUUGUCUUUUGUUUAGAUACCAAUCUUUUAAAUUCUUGCAUUUUAGUAAGAAAGCUACCUUUUUAUGGAUGUUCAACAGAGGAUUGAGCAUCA` the bound/input enrichment was 0.861 ratio.
For `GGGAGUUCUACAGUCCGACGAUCUCGCCCAGUUCAUCCCAGCAGCUUCGCCCUCCGACCUGCACAGCUUGCAAAGGAACAGUCUAGUGGUAUUUGUAUUUUAAUUUAAAACCUGCUUUUCCCAAAACUGAUCAAGAAGCUACGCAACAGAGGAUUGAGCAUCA`, the bound/input enrichment was 0.573 ratio.
`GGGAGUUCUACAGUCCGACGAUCUUUAAUUGAUCAGGGCUGUAAAUGUAUAUUGAGAGAAUCAGAGUAUUUAUAUAAACAGAGGCAUUUAUUUAAAGAAAAGGGUCAUUCCUCUUUCAUAUGGUGAUCUGUAUUAAUUCCAUUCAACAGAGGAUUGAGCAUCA` has a bound/input enrichment of 0.651 ratio.
The bound/input enrichment of `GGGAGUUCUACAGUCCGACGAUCCUCCUCUUAAUCCCAUCUCAUCUGUUUCAUAGUGCUGAAAUUCCAUCUUCAGCCUUAUUUUUAGCGAACUUAUUCUAAUUCUAGAGAAACUUCCAGUGGAUACUGUGAGCUAUAUGGAGACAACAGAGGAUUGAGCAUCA` is reported as 1.3 ratio.

Block 2
Target: ABI1, truncated, D143A, DHFR fusion (Arabidopsis thaliana)
Technique: DHFR PCA, deep sequencing
Sample: yeast
Setting: methotrexate growth selection, single substitutions
Added: (+)-ABA 0.11 µM
Reference: wild-type fitted maximum
Reading: higher = stronger binding
Parent: PYL1, truncated, DHFR fusion (Arabidopsis thaliana); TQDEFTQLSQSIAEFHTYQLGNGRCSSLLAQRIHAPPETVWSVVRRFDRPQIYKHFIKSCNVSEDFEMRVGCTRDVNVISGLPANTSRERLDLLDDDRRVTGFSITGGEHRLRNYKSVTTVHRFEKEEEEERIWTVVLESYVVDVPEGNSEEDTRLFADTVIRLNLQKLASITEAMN
For `L91T`, “relative binding score” read 7.66%.
`D144I` — result for “relative binding score”: -18.2%.
`F124S`: “relative binding score” 4.81%.
`T173G` — result for “relative binding score”: -1.25%.
`F157V`: “relative binding score” 9.96%.
For `G81A`, “relative binding score” read 10.3%.
`D153K`: “relative binding score” 2.96%.
`N177G` — result for “relative binding score”: 39.2%.
Under “relative binding score”, `S140K` is recorded as -11.4%.

Block 3
Target: RNA binding protein fox-1 homolog 2, RRM domain, GST-SBP tag (RBFOX2, Homo sapiens, UniProt O43251-10, residues 100-194)
Technique: RNA Bind-n-Seq
Form: RNA
Sample: in vitro
Concentration: 365 nM
Setting: natural RNA segment, single round, ends assumed
Reference: no-protein control
Reading: higher = stronger binding
Target sequence (chain): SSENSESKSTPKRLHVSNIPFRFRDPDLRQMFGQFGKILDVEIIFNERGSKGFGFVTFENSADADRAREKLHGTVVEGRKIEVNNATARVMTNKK
`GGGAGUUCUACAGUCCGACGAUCAAGUCUAUCUUGAAGCUGCCUGUUUGAAGUUUCCCAUGCGUCGCCUUGUGCUUCGGUUUCUAAGGGCCCUGUGGUGUGCAGUGAGCUCCCUUCCCGGCACGUGGAUUUUUUGGAAUUCUCGGGUGCCAA`: “RBNS enrichment (R)” 0.219.
`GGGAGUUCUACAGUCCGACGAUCUCCGUAGCAGAACACUGUAAAAGUGCCCGCGUCUUUGCAGUAGUUGCAGAUUUCAGUCGUCGUGUUACUUGUGCACAAACAGAAGCUGGGUCUUACCCGCAGCACGAGUGUGGAAUUCUCGGGUGCCAA`: “RBNS enrichment (R)” 0.523.
Under “RBNS enrichment (R)”, `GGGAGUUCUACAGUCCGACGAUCUUCCCAAAAUGAGAGGCACCAACUUCAAGAAUUGCCUCCUAGGGGGAGGCACGAGCCAGAGACCAGGACCUGCAGGUCCUUUGCUGCUGGGAACUCUCCCAUUUUCAGGUUGGAAUUCUCGGGUGCCAA` is recorded as 0.581.
`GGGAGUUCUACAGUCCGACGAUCUUUUCUAUAAGCACACUGACCUUAUGGGGCCAUGUUAUUUUUAUAUGAUAAACGUCUUCCAUAGAACUUACUAUAGUCAAAUAACAUAAAAAAACUGACCUAUACAAGUGUGGAAUUCUCGGGUGCCAA`: “RBNS enrichment (R)” 0.494.
`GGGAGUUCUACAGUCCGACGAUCACACUCUUCUCAGCUUAUAAAAUUUGCCGUUUUGUAUAUUUUUAAAUAUGGAUCAAAAAGAGUCUUGGAUACUCAGCCCCAUAUUUUGUGCUGAACUGACAUGAACAACCUGGAAUUCUCGGGUGCCAA`: “RBNS enrichment (R)” 0.482.
For `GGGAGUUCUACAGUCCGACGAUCGUUGAAAGUCAAAUGUGGCUGUUGAGUCCACAGACCCCCAUCCUAAUUCCUGCACCUGGAGGAGUUCCCCAACCCCCGUGUUUGCGGGAGGAAGCAUUUGUACAGUGGCUUGGAAUUCUCGGGUGCCAA`, “RBNS enrichment (R)” read 0.55.
`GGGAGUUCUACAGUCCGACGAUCAGCGAAUGGUGAAAGCUACUGAAAUAAGCUGUGAUUGUACUGUACAUAAAACAUAUGAGGAAUCUGCAAGGAACACUACAGUUGUGUAAAGUUGUUCUGUUAACUUUUGUUGGAAUUCUCGGGUGCCAA` — result for “RBNS enrichment (R)”: 0.445.
For `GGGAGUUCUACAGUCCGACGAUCCCCUGCCCUGGUCCUCUUCCUGCCUCCUGUAAAUAUCUGUAUCUAGACCAGAAUAUUUUGUCCAAGUAUAAAACAACAACAACAAAAAAUCAUGGUGUCAUUGUCUGGGGUGGAAUUCUCGGGUGCCAA`, “RBNS enrichment (R)” read 0.445.
Under “RBNS enrichment (R)”, `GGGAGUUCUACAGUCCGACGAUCAUUCACUGCUGCCCUGACUCUUCACCAUCUUUCUUUAGCAAGGUAUUUUGAGCCAUUAAUGAUUUUGGGUUUUUUAAUCCAGAAGGUAUAUAAAAGCCUUUUCAGAGUUUUGGAAUUCUCGGGUGCCAA` is recorded as 0.603.
`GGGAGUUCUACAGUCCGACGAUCCUCAUGUCUGCUUAAAAUUCACGCUGACCUUGCAGAGCACCAGAGCAUGGGGCUGGCAUGCAGGAAGUGCCCUGUAUCUGCAGCAGGAGGCUCUGGGCUGGGACAUGGCUUGGAAUUCUCGGGUGCCAA` — result for “RBNS enrichment (R)”: 0.999.
Under “RBNS enrichment (R)”, `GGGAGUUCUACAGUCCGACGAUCUCCCUCGCUCGCUCCGGCUUCUCUGCUUUCCCAGGUCUCAGAAAAGAAACCCCUCCACAUCCCCGAGGCAGCCCGAUGGCUUCCAGGGUGGCUCGGGCAAGUGGAAGCACUGGAAUUCUCGGGUGCCAA` is recorded as 0.581.
For `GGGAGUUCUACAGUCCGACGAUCAUUGUAGGUGUGAUGUUAUGCACAGGAUGCUCAGAGCUAUGUUACUACUAUUCUUAGUUUGUAAAUUGUCCUUUUGAUACCAUCUUGUUUUCUUUUGUAGGUAUAAAUAAUGGAAUUCUCGGGUGCCAA`, “RBNS enrichment (R)” read 0.917.

Block 4
Target: Interferon regulatory factor 5, full length, phosphomimetic (IRF5, Homo sapiens, UniProt Q13568-2, residues 1-514, K96S/S451D/S453D/S456D/S462D)
Technique: protein-binding microarray
Form: double-stranded DNA, one strand shown
Sample: in vitro
Concentration: 250 nM
Setting: 60-bp whole probe
Added: salmon DNA 0.4 mg/ml
Reference: random background probes
Reading: higher = stronger binding
Shared flanks, not repeated: GCCTAGCAC … GTCTTGATTCGCTTGACGCTGCTG
For `TCATCTCTCTGTGACACACTGTGCTAG`, the log fluorescence was 0.325 z-score.
With `TTAGAACTTGGGACTGGATTAGTGCTA` the log fluorescence was -0.114 z-score.
For `GACGGTCTCGGACTGGTGACGTGCTAG`, the log fluorescence was -0.463 z-score.
`GACTATTTCAGTATCGAGACGTGCTAG` has a log fluorescence of 3.91 z-score.
`TTAGATTGCGGGTATCGATTAGTGCTA` gave a log fluorescence of 3.31 z-score.
`TTGGGTATCGGTATCGGTTAGTGCTAG` has a log fluorescence of 9.24 z-score.
The log fluorescence of `TTAGGTTTCGGGTATCGGTAAGTGCTA` is reported as 9.73 z-score.
The log fluorescence of `GACGGTCTCCATCTCCTGACGTGCTAG` is reported as -0.249 z-score.
For `GACGGTATCGGTATCGGAACGTGCTAG`, the log fluorescence was 7.47 z-score.
`TTAGGCATCGGGACTGGGTTAGTGCTA` gave a log fluorescence of -0.498 z-score.
For `TTAGGTATCCTTCTACTTTAGTGCTAG`, the log fluorescence was 0.314 z-score.
The log fluorescence of `GACGCTATCGGTCTCGGGACGTGCTAG` is reported as 6 z-score.
With `TCAGTTCTCCCTTTCAGTTTGTGCTAG` the log fluorescence was 2.09 z-score.
`TTAGGACTGGACTATCCGTTAGTGCTA` has a log fluorescence of -0.0682 z-score.
`GGCGGTTTCGGACTGGGGACGTGCTAG` has a log fluorescence of 4.06 z-score.
`TTAGGCTTCGGTTCCGGTTAGTGCTAG` gave a log fluorescence of 1.76 z-score.
`TACGGTCTCCTTCTCCTGACGTGCTAG` has a log fluorescence of 0.0441 z-score.
`TTAGGACTAGACTATCGGTTAGTGCTA` gave a log fluorescence of 5.45 z-score.
`TTAGGACTGGGTCTCGGTGAGTGCTAG` has a log fluorescence of -0.522 z-score.
`TTTCCTCTGTCATTTTCTCTGTGCTAG` gave a log fluorescence of 3.03 z-score.
`GACGGTTTCCTTATTCTGACGTGCTAG` gave a log fluorescence of 0.737 z-score.
